{"data": "Experimental data collected from several papers"}
{"Compound": "CCCCCCCCCC(=O)N[C@H]1CCOC1=O", "target": "ExpR2 (Pectobacterium carotovorum)", "assay": "cellulase activity, antagonist", "system": "Pectobacterium carotovorum, single-ExpR2 strain", "conditions": "5 µM, 4 h, added: OHHL 5 µM", "inhibition": "76%"}
{"Compound": "CC(=O)N1CCN(c2ccc(OCC3COC(Cn4ccnc4)(c4ccc(Cl)cc4Cl)O3)cc2)CC1 (stereo not drawn)", "target": "human UGT", "assay": "glucuronidation", "system": "human liver microsomes", "conditions": "200 µM, 60 min, added: FBI-COOH 50 µM", "inhibition": "> 50%"}
{"Compound": "O=C(Cc1ccc(Cl)cc1)N[C@H]1CCOC1=O", "target": "ExpR2 (Pectobacterium carotovorum)", "assay": "cellulase activity, antagonist", "system": "Pectobacterium carotovorum, single-ExpR2 strain", "conditions": "5 µM, 4 h, added: OHHL 5 µM", "inhibition": "48%"}
{"Compound": "O=C(Nc1cccnn1)N1CCN([C@@H]2CCOc3cc(C(F)(F)F)ccc32)CC1", "target": "GABA-A receptor chloride channel", "assay": "binding", "conditions": "20 µM", "inhibition": "52%"}
{"Compound": "CC(C)CC(=O)OC[C@H]1O[C@@](C#N)(c2ccc3c(N)ncnn23)[C@H](O)[C@@H]1O", "target": "KATP potassium channel human", "assay": "radioligand binding", "conditions": "20 µM", "inhibition": "3%"}
{"Compound": "C[C@H](C(=O)N[C@H]1COc2ccccc2[C@@H]1S(C)(=O)=O)c1ccc(F)cc1", "target": "nicotinic acetylcholine receptor, human", "assay": "binding", "conditions": "10 µM, Eurofins selectivity panel", "inhibition": "5%"}
{"Compound": "COc1ccc(N2C(=O)N(c3c(C)cccc3Cl)Cc3cnc(Nc4ccc(C5CCN(C)CC5)cc4OC)nc32)nc1", "target": "LYN B, human", "assay": "kinase activity", "conditions": "0.5 µM", "inhibition": "97%"}
{"Compound": "CSc1cccc(CC(=O)N[C@H]2CCOC2=O)c1", "target": "ExpR2 (Pectobacterium carotovorum)", "assay": "cellulase activity, antagonist", "system": "Pectobacterium carotovorum, single-ExpR2 strain", "conditions": "5 µM, 4 h, added: OHHL 5 µM", "inhibition": "71%"}
{"Compound": "C[C@H](CCC(=O)O)[C@H]1CC[C@H]2[C@@H]3CC[C@@H]4C[C@H](O)CC[C@]4(C)[C@H]3CC[C@]12C", "target": "human UGT", "assay": "glucuronidation", "system": "human liver microsomes", "conditions": "200 µM, 60 min, added: FBI-COOH 50 µM", "inhibition": "> 50%"}
{"note": "A few entries again:"}
{"Compound": "O=C(Nc1cccnn1)N1CCN([C@@H]2CCOc3cc(C(F)(F)F)ccc32)CC1", "target": "GABA-A receptor chloride channel", "assay": "binding", "conditions": "20 µM", "inhibition": "52%"}
